# Results pooled from the literature.
# Numbered parts are unrelated; each lists some results of a single study. Numbers after ± are the reported error.
# Chain of UniProt P08603 (whole entry, looked up): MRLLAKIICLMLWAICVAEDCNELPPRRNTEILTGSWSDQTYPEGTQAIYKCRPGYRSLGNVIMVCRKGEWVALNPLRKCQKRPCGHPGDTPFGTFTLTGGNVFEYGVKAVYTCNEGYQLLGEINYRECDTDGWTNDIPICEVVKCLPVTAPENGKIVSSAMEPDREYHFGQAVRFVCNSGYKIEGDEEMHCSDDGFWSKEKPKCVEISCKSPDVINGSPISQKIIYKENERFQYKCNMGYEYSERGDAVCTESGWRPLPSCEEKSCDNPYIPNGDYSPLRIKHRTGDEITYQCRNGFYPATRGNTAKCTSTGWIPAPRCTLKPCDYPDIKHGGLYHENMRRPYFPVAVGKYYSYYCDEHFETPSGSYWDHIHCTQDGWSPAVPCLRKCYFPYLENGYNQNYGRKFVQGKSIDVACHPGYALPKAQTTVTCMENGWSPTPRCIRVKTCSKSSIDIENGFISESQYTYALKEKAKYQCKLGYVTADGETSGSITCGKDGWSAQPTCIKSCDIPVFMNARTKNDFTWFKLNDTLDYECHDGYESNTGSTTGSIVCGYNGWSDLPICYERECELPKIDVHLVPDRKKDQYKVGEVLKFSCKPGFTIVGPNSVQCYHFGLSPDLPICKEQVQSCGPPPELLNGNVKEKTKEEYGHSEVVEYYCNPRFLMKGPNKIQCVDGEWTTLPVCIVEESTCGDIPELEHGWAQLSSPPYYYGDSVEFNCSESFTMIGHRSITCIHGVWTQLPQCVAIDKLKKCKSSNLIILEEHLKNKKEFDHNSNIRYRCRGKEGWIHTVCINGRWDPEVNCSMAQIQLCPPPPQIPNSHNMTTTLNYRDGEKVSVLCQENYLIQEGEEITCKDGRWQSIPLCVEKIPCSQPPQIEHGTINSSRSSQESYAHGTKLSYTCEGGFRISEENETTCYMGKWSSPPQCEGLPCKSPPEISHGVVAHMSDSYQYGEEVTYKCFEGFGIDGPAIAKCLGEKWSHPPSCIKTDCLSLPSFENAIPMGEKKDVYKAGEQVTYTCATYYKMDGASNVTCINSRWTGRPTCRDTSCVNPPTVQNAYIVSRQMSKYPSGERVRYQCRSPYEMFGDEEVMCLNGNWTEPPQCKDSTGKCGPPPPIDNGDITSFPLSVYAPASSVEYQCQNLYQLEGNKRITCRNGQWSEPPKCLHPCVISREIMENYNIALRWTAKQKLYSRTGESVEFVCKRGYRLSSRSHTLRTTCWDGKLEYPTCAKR

# Series 1
# Molecule type: peptide
# Cells: tetramer-reactive CD8+ T cells
# Species: COVID-19 convalescent HLA-A*02:01 subjects
Sequence,number of clonotypes
EEFEPSTQYEY,1
FASEAARVV,6
KRVDWTIEY,0
QLTPTWRVY,2

# Mixed results
Molecule,tested on,assay,system,conditions,scale,measurement,value
trehalose dimycolate,,flow cytometry,"C57BL/6 mice, lung","intravenous, 100 µg, day 5",baseline: vehicle,macrophage and dendritic cell increase,25 ± 6.4%
TTTATAAAAAACCAATATATGTCTTGACACATGTAAAAAACGTTGTATAATG (dsDNA),"niaR 1-174 K16A (Streptococcus mutans, UniProt Q8DVX8)",EMSA,"double-stranded DNA, one strand shown",,,binding,binds
cbpA fragment (Streptococcus pneumoniae),"CFH 508-567 (Homo sapiens, UniProt P08603)",ITC,,,,Kd,4.72 ± 0.4 nM
TFFRLFNRSFTGRRRRSVQWCA,Streptococcus mutans,"2D-DIGE, measured: amino acid ABC transporter ATPase","peptide, UA159","20 µg/mL, 1 h",baseline: water control,protein level ratio,-4.51
